Published values pooled from the literature.
A part holds a random share of what one study measured.

Study 1 — technique: RNA Bind-n-Seq; molecule type: RNA; matrix: in vitro; concentration: 365 nM; relative to: no-protein control; reading: higher = stronger binding
Target: RNA binding protein fox-1 homolog 2, RRM domain, GST-SBP tag (RBFOX2, Homo sapiens, UniProt O43251-10, residues 100-194)
Setting: natural RNA segment, single round, ends assumed
All sequences stand within: GGGAGUUCUACAGUCCGACGAUC … UGGAAUUCUCGGGUGCCAA
Residues (chain): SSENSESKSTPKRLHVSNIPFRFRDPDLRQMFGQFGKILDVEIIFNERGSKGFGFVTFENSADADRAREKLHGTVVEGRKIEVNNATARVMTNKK
Sequence | RBNS enrichment (R)
UACAGUUGUCAGAAGUGACUCAUUCGCUUCAUUUGUGAUGAUUUUUUUUUAAUCUUCCUCUGUUAGCCCACAGGACAUGUUUUGGGGAAAAUGAUACUUGUAAAUCUUCU | 0.367
CCUGGGUCCGACUUCCCAAACACACUGGAGCUCGUUGAGCUGGCUGCGCAGCCUGCUUUGUCCUCCCAUCUCCGUGGACUCUGUGAAAAUGCCAAAGGAAGGAAGCCUCA | 1.09
CUACUUUCCGUUUACUUCAAUCCUUGCCUUUUUGGUCAUUGUUAUAAUGCCAGCUUUAGGACAGAAAGAAUUAUAAGAAAACCAGCAUAAUACCUGAUAUAUUAAAAUGU | 0.434
ACUUCCAAGCGCAGGGACGCCGGCCUCCAGCUGGUGUGUGCUAAGGCUCCGUCCUGACUGCCCUGUGCCCUGGAAAAGCAGCAAUAGCAUCCGCCCCUUAGAGCCCUCUG | 0.414
UAUUGUUUUACUUAGAAUAUUAGGAUUUUUUUUCACUAAUUUUUCUGCCAGUGAAGGAAAAUGGUCAUCCUUAGUACACAGAAAAGUAUGUUUUCACUUUUCCUUGUUCG | 0.306
AAAGCUUCCGUAGUGCAUUGGUAUGGAUUAAAUGCAUAAAAUAUUCUUAGACUCGAUGCUGUAUAAAAUAUUAUGGGAAAAAAAGAAAAUACGUUAUUUUGCCUCUAAAC | 1.49
GCCCCACUAGCCAAGAGAAACAGAGAAAGACCAUUCCCCCUGCCUGUCCUUGCGGCCCUGUCUUCUGAGGUUCUCUGUCUGGGGUUGGCUCUCUUAACCCUUUCUCUGCU | 0.96
ACUUUGUAUUUACAAAGCAAGUAGAGGUCUUAAAUUUGCUUCAAGAAGCAGUUGCUCCACUGGAAUUUCUAUAAAGCUGGGUAAAGGGUUAGCAGAAUUACAGAUCUUAA | 0.45

Study 2 — technique: RNA Bind-n-Seq; molecule type: RNA; matrix: in vitro; concentration: not given; relative to: input RNA pool; reading: higher = stronger binding
Target: RING finger protein unkempt homolog, zinc fingers 1-6, GST-SBP tag (UNK, Homo sapiens, UniProt Q9C0B0, residues 30-357)
UniProt Q9C0B0, sequence (30-357, looked up): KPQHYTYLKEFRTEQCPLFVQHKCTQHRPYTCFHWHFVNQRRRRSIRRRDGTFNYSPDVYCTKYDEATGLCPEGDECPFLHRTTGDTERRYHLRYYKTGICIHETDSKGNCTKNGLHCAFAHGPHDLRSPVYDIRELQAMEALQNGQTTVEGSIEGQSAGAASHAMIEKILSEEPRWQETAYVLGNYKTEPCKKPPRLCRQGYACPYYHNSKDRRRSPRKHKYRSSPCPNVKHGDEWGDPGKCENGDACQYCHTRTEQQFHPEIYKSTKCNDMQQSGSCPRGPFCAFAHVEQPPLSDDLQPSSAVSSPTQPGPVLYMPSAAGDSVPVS
Setting: RNA with constant flanks, human-mouse chimeric sites, ends assumed
All sequences stand within: GGGAGUUCUACAGUCCGACGAUC … CAACAGAGGAUUGAGCAUCA
Sequence | bound/input enrichment [ratio]
AAAGAGUGGAUAGAGUGUGCACACGGGAUCGGUGGGACCCGGGCGAAAAAGGAGUGCAAGAUAGAGUAUGAUGAUUUCGAAGAGUGCUUGCUUCGGUACAAAACGAUGAGACGUGCACAU | 0.671
GUUCGGCUCUGGGAUCAUGCCACAAUGACAGAAGUGAAAUCUCUGAAUUUUAAUAUGUCUGUUAGCAGCAUGGAGUAUAUUCCUGAGGGAGAGAUUUUGGUUAUUACUUAUGGACGAUCU | 0.386
AAGCAACGCAAACUUGAAACAAUUCGUUUUACAAAAACCUCAGUGUUCACUUGCUUGGCGAUAGCAUUGGGGUUUUAUAGGUUCUGGAAGGAGAACUGACGAUGAUGCUGCCGCUGCUGC | 0.271
ACCAUUUUCGCGGUUCAGGCUUUGUGUGUAGUUCACUCUAUGUAUUAAAUUAUUAUUCUGCUUAGCUUAUAAUAAGGAUAAUUGCAUUUAAAGAGGUUACUGAAUGUUGUUAUUGUUCUU | 1.69
UCGGAUGCUGUGCUGGGUCACUUUCCGUAUCCAGAUCCUUCACAGUGGACAGAUGAAGAACUGGGAAUCCCUCCUGAUGACGAGGACUGACACUGUAAACUCUCUGGACGAGUAGGAGCA | 0.683
UGGCGCCUGCGCUCCCCACUCGUGUUUUUAAGUGUAUUUUUAUAAGAUACAUGUAUUUACAAUUGAGCUUUUGUUACUAUAAUACUGAAUGCUACUGGAGAUUAUGAAAAAAUGUUAAAU | 0.263
AAAGAGAAAGCUAAAACACUAAUAGAGAAGAGGAUUGGCAAAGAGAAUUUCAUAGAGAAACUAGGAUUUAUUAGCAAACAUGAGUUAUAUUCCAGAGGCAUCUCAGAACCCCAGCCAAAC | 10.8
AAAGAGUGGAUAGAAUGUGCACACGGGAUCGGUGGGACUCGGGCAGAAAAGGAGUGCAAGAUAGAGUUCGAUGACUUCGAAGAGUGCUUGCUUCGGUACAAAACGAUGAGGCGAAUGCAU | 0.256

Other studies, line by line
Compound | tested on | assay | system | setting | endpoint | result
C[C@H](NC(=O)Nc1cc2[nH]ncc2c(CO)n1)c1ccccn1 | ADRB2 (Homo sapiens, UniProt P07550) | cell-free assay |  | 10 µM | inhibition | -12.8%
COc1cc2c(cc1OC)C1CCCCC1OC2c1cccc(F)c1 (stereo not drawn) |  |  | mouse, microsomes or S9 | 2 µM, 0.5 h | remaining compound | 7.07%

For quick reference, copied from above (study 2):
Sequence | bound/input enrichment [ratio]
GUUCGGCUCUGGGAUCAUGCCACAAUGACAGAAGUGAAAUCUCUGAAUUUUAAUAUGUCUGUUAGCAGCAUGGAGUAUAUUCCUGAGGGAGAGAUUUUGGUUAUUACUUAUGGACGAUCU | 0.386
AAGCAACGCAAACUUGAAACAAUUCGUUUUACAAAAACCUCAGUGUUCACUUGCUUGGCGAUAGCAUUGGGGUUUUAUAGGUUCUGGAAGGAGAACUGACGAUGAUGCUGCCGCUGCUGC | 0.271
ACCAUUUUCGCGGUUCAGGCUUUGUGUGUAGUUCACUCUAUGUAUUAAAUUAUUAUUCUGCUUAGCUUAUAAUAAGGAUAAUUGCAUUUAAAGAGGUUACUGAAUGUUGUUAUUGUUCUU | 1.69
